Experimental data collected from several papers.
Parts stem from different laboratories: compare values within a part only.

Block 1 — technique: universal PBM; molecule type: double-stranded DNA, one strand shown; sample: in vitro; tested at: 600 nM; direction: higher = stronger binding
Target: Sal-like protein 4, full length isoform A (SALL4, Homo sapiens, UniProt Q9UJQ4, residues 1-1053)
Sequence of UniProt Q9UJQ4 (whole entry, looked up): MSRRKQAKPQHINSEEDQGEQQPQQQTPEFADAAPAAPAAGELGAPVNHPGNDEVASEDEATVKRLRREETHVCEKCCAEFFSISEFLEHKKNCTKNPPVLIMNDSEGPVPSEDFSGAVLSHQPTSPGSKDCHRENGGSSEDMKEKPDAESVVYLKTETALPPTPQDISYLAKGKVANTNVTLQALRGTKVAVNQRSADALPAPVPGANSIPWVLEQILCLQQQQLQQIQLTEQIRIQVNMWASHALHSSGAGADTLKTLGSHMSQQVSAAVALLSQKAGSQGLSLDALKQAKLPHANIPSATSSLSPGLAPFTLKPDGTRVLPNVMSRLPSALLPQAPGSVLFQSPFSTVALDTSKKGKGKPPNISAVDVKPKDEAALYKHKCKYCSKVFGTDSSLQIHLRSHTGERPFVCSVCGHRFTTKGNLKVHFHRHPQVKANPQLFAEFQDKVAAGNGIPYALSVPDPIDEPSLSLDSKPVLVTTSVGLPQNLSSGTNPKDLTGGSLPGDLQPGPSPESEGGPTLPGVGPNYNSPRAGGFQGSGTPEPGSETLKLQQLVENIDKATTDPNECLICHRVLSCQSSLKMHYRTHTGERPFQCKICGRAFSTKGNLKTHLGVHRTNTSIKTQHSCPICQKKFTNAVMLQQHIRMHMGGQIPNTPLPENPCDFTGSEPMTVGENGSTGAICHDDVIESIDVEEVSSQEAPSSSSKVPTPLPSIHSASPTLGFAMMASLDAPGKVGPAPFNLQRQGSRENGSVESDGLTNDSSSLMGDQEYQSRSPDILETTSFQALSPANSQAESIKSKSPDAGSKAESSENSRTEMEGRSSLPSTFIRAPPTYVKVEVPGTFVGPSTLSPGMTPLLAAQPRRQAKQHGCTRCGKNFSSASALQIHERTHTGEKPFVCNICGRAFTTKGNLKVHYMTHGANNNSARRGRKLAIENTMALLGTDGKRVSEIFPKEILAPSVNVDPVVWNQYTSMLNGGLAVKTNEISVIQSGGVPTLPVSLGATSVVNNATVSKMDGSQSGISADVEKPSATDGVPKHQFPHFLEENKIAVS
Setting: 8-mer, flanks averaged, mean of replicates
| Sequence | E-score |
| --- | --- |
| AGGGATAT | 0.202 |
| ATGTTTGA | 0.184 |
| ACCCTGAT | -0.0611 |
| AAACAGAC | 0.0833 |
| TCTAAGCA | 0.0985 |
| ACCTCTAA | 0.108 |
| AAGTCCAT | -0.0648 |
| AATTGCGT | 0.134 |
| AGAGCCAG | -0.264 |
| ATAACCAA | 0.31 |
| GAGAGAAC | -0.158 |
| GTACACCA | -0.103 |
| ACCGCACC | -0.307 |
| AAGGATCC | -0.289 |
| AGACCCTG | -0.209 |
| CGACGCGA | -0.303 |
| GACCATGA | -0.0193 |
| AGTTTTTA | 0.287 |
| CACGGAGG | -0.165 |
| CGTACGTC | -0.176 |
| CGTACCCC | -0.265 |
| AGTCTGCG | -0.254 |
| AGCGCATG | -0.187 |

Block 2 — technique: RNAcompete; molecule type: RNA; sample: in vitro; tested at: 20 nM; setting: 7-mer, probes averaged, single round; baseline: mean of 7-mers; direction: higher = stronger binding
Target: PABPC1L2, full length, GST fusion (mouse, UniProt A0ABA7IW68)
Target sequence (chain): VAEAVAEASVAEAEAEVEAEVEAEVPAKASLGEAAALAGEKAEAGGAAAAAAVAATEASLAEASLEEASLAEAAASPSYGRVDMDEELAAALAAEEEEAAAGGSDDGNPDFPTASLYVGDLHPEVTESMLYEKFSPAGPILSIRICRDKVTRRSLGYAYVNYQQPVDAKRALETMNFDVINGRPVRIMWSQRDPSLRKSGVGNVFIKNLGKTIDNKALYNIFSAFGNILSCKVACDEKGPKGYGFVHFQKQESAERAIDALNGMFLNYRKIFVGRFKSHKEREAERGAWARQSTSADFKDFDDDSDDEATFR
| Sequence | 7-mer Z-score |
| --- | --- |
| GAUACGA | -0.108 |
| AGUUUUC | -0.409 |
| CAGAUGU | 0.00436 |
| AUGCGUA | -0.0844 |
| UCAUCAG | -0.188 |
| ACACAUG | 0.00979 |
| CAAGACG | -0.00652 |
| GUAAAUU | 0.474 |
| GCACUCU | -0.26 |
| CCGGUGA | -0.103 |
| UUGUGGG | -0.133 |
| GGGAACG | 0.305 |
| AUGUACC | -0.219 |
| ACUUCCA | 0.017 |
| UGCGAUA | 0.0388 |
| CAAGGUU | -0.215 |

Block 3 — technique: RNA Bind-n-Seq; molecule type: RNA; sample: in vitro; tested at: not given; setting: RNA with constant flanks, ends assumed; baseline: input RNA pool; direction: higher = stronger binding
Target: RING finger protein unkempt homolog, zinc fingers 1-6, GST-SBP tag (UNK, Homo sapiens, UniProt Q9C0B0, residues 30-357)
Sequence of UniProt Q9C0B0 (30-357, looked up): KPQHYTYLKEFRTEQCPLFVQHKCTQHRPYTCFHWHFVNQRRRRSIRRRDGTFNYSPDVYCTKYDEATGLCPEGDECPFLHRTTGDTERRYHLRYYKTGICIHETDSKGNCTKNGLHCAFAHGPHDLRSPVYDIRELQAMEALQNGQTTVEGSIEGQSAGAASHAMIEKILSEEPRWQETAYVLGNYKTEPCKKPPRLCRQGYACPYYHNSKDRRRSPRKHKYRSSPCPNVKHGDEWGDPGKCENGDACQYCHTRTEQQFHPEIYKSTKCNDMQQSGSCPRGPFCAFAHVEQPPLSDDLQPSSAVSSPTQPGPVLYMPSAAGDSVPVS
All sequences stand within: GGGAGUUCUACAGUCCGACGAUC … CAACAGAGGAUUGAGCAUCA
| Sequence | bound/input enrichment [ratio] |
| --- | --- |
| GCAGAAUACCCUGAUGAGUAUCAUGGCGAGUACCAGGAUGACUACCCCAGAGAUUACCAAUACCGCGACCAAGGCAUUGAUUAUUAGAUCCACACAGAAGGAGCUCAGUAUUUAGUCCUU | 0.283 |
| GUUCUUACCACUUCUCUUCCUCCUCACCCCAGAUACUUCCUCUUCCCCACAACCAAUGUACACCGUAAUUGUAAUGUUUUAGACUUGACAGAAACUUUCCUGUAUUCUGUAUAUAAAAAC | 1.34 |
| CCUGAAGAAAACCCUGGGUCACCUUCUAGAGAAUCACCUCUUUCAGCACCUUCAGAUCAUUCUCCGGUCUAAGGUGUAACACCUUUGCAGUACGUCAUGGGUGAUCUAAUACUUCCCCUU | 0.173 |
| GAUAUUCAUUUGAAUGAAAUGGCUGGAGACAUCUUAGUUUUUCUGACUGGCCAGUUUGAGACCGAGAAGAGUUGCGAGCUGCUCUUUCAGAUGGCGGAGUCUGUUGACUAUGAUUAUGAU | 0.171 |
| ACAUUUUCCUCCUAAUAAAUUAUCCUUGUGAUGGGCGACAUGGCCAACAACUCAGUUGCGUACCGCGGUGUGAAGAACUCUUUGAAAGAAGCUAACCAUGAUGGAGACUUUGGAAUUACG | 0.44 |
| UCUUUGUUUGUAACUUAUCUGUAAAAGGUUUCUCCCUACUGUCAAAAAAAUAUGCAUGUACCGUAAUCCGGACUUCAUUCCUCCAUGUUUUCUUCCCUUAUCUUACUGUCAUUGUCCUAA | 0.419 |
| AAUGUGUCCAUGCAAAAUGCUGUGAAUGAGCCUGUACAGAAACUAAUGCGGAAAAAGCAAUCCGACGCCGCAGAAUUUAGCAUCUAUUGGGAUGUCGAUUGCACUUUACUGGGGGAUUUG | 0.344 |
| GUUGCCAGACCGGCCCAUAAAAAGAAAGCUCGAAUGGCGCGGACGCGCUCCGAUUUCUUGACCCGAGGUACUUUUGCCGAAGGGGAGGGGGAUACAGAGGAAGAUGAUUACGAUGACAUU | 0.15 |
| GCAGUGGAAUUUUUCAUCAGAGAUAAAUAUGAAAAGAAGAAAUACUACGAUAAAAAUGCCACCGCUAUUACAAAUAAAGAAAAGGAAAAAAAAAAGGAAGAGAAAAAGAGAGAAAAGGAG | 0.778 |
| AAAGCAAUUGAGCAGGCCGAUCUCCUGCAGGAGGAUGCAAAAGAAGCUGAAACCCCACGCCGUGUUCUUGAAGAAAUUGGACUGACAUAACUGUCCUCCCUUGCUGAUGACUUCUUGUGG | 0.148 |
| UCUCGCUCUCCUUUUUUUUUUCUUUUUUUCUUUUUCUUUUUUUUUUCUUUUUUUAAAUACCCGCAACUUUCAUCCUUUGGAACUUGUGCUGAAAAAAGAAGAGUCAGCAAAUACUACUGA | 0.713 |

Block 4 — technique: RNA Bind-n-Seq; molecule type: RNA; sample: in vitro; tested at: 20 nM; setting: 6-mer, flanks averaged, single round; added: 150 mM KCl; baseline: input library; direction: higher = stronger binding
Target: TAR DNA-binding protein 43, full length, His tag (TARDBP, Homo sapiens, UniProt Q13148, residues 1-414)
| Sequence | 6-mer enrichment (R) |
| --- | --- |
| UCCACG | 0.694 |
| CCAUUU | 0.646 |
| AUUUCA | 0.549 |
| AUGAAU | 0.881 |
| AACUGG | 0.955 |
| UGGUAG | 1.38 |
| UGCAAU | 0.656 |
| UCGUAU | 0.597 |
| GGUGCG | 3.45 |
| CCAGCC | 0.692 |
| GACCUU | 0.663 |
| CCUUGG | 0.95 |
| GAUAUC | 0.6 |
| AUAGCA | 0.669 |
| CUUGCG | 0.875 |
| GGCCUC | 0.919 |
| UUGUCG | 0.751 |
| GCAUGC | 0.992 |
| AUGCGA | 0.853 |

Block 5 — technique: RNA Bind-n-Seq; molecule type: RNA; sample: in vitro; tested at: 365 nM; baseline: no-protein control; direction: higher = stronger binding
Target: RNA binding protein fox-1 homolog 2, RRM domain, GST-SBP tag (RBFOX2, Homo sapiens, UniProt O43251-10, residues 100-194)
Setting: natural RNA segment, single round, ends assumed
All sequences stand within: GGGAGUUCUACAGUCCGACGAUC … UGGAAUUCUCGGGUGCCAA
Construct (chain): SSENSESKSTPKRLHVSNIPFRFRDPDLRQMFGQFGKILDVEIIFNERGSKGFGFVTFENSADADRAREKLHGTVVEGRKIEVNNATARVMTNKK
| Sequence | RBNS enrichment (R) |
| --- | --- |
| AGGAAACGCUGCAGGGGCCACAGGCACAGGCUGAUAUUUAAAGAUCUUUGCUUGCAGCCCUCCGUCCUGCUGAAAACCCCCAUAAGCCAGUGAACACAGAGCAGCUAGAG | 0.569 |
| AAUCCUGUAGACCUUGACAUUCAGAAAGAUGUGAGCUGCUUACUGAUCAUAUAUGCAUACGUUUCUUUACAGCAGAGGAAACCAUUGUCCACAAAACUGAUGUUCUUUUG | 0.599 |
| AAGACCCUUUGCAAACCCUGAACUGGGCUACGGGAAAAUAACACGAAUACUGAUAAGGACACAACUAUGUGUGCCCAUUCAGAUCAAAGUACUUGUUAGGGAAAAAAAAA | 0.327 |
| AAAAAGGACUUAAUUUCUACUACUGCACUAUCUGUUGUGAGAUAAUUAAACAUGCUAUUUAAUUGUGUGCCUGGCUAUGAGGUUGUGCUAUUUCAUGCUACAUGUGUGAC | 0.776 |
| GCUCGGCUUCUGCCUCUGUUUCCAAGCCCACCCCUUCCCGGAGGGAUAGGGACGGGUGCUUUCCUCUCUAGUUGUAUCUGAGCGGAAGGAACAUCUUUCUGUAGCUAAUA | 0.21 |
| UUUUCAGAGGGGCUCUGAACAGAAUGAAAACCUAGUUCUUGCGUGUACUUUGAAGAAUGGAAUUGUAUUAGUCAGCCUGUUAAUGCCACUUCAGAGUUUGGGGUUUUGUC | 9.19 |
| UGAUUGAUGGUUGUAUUAUUUUCUCUGAAUCCUCUUCACUGGCCAAAGGUUGGCAGAUAGAGGCUGUUCCCAGGCCAGUGAGCUUUACUUGCAGUGUAAAAGGAGGAAAG | 0.373 |
| AGUGCUCCUGCUUUCAGUCCCCUCUGCCUUCCAGUGAUCUCUUUCCUACAAGCUGCUUCGAGGUCCAGGGGCCUCUGCUUCUUAAACACUAUGUCCCAGUCUUCUCAUGU | 0.345 |
| ACACUGUCUUUGUACAUUUCAGAGCUUUGGUCUCCUGAGUGGGCCUCCUUUUCCCACUGUGCCAGGGAAGGUAGGUUUCUCUGGCUGACUGAGUACUGUGAGUGAGGCAA | 0.381 |
| CCUUCUUGUUGCUGUUAGAAUAGUGCUAUAUAUCAGGUAUGUGACCAUUUAUUUCAGAAGGCUGAACAUAAGAGGUUUCUACUCAGCAAUACUUAGAUGUCUAACUGUUU | 0.416 |
| GUGACCACAGCUGGGCCCUGUUCCCUCUGGACCUCGGUCUCCUCAUCUGUGAGAUGCUGUGGCCCAGCUGACGAGCCCUAACGUCCCCAGAACCGAGUGCCUAUGAGGAC | 0.436 |
| CGCUUGAGGCCAGGAGUUUGAGACCACCUUGGGCAACAUAACGAGACCCCGUCUCUACAAAAAAAAUUUAAAAAUUAGCUGAGCAUGGUGGCAUGUGCCAGUAGUCCCAG | 1.64 |

Block 6 — technique: protein binding microarray; molecule type: double-stranded DNA, one strand shown; sample: in vitro; tested at: not given; baseline: not given; direction: higher = stronger binding
Target: Histone acetyltransferase KAT6A, winged helix 2, GST fusion (KAT6A, Homo sapiens, UniProt Q92794, residues 85-181)
Setting: 8-mer, flanks averaged, mean of 2 arrays, mostly near background
Target sequence (chain): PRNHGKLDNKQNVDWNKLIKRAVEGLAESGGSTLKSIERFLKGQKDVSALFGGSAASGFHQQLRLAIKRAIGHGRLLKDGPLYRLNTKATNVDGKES
| Sequence | E-score |
| --- | --- |
| GGGCGGAA | 0.116 |
| ATTGGACA | 0.106 |
| AGCTCCCC | -0.12 |
| ATCGCACC | 0.0439 |
| CCAGCAAC | -0.0187 |
| AAACTGAA | -0.0604 |
| ATAGGCCA | -0.184 |
| CGAGATAC | 0.0345 |
| CTCAGCTA | -0.0639 |
| TCCTCAGA | -0.014 |
| GAAATACA | -0.0643 |
| ATTAACTA | -0.111 |
| ATGTTAAG | -0.00212 |
| GGGTGGTA | -0.0623 |
| GCGGTCCC | 0.197 |
| ACCCGCTG | 0.112 |
| GCAAGGGA | 0.0188 |
| TCACCACA | 0.0959 |
| AAATTAGT | 0.089 |
| CCCTGGCA | 0.0412 |

Some of these lines once more (block 2):
| Sequence | 7-mer Z-score |
| --- | --- |
| GCACUCU | -0.26 |
| GAUACGA | -0.108 |
| CCGGUGA | -0.103 |
| GUAAAUU | 0.474 |
| ACUUCCA | 0.017 |
| AUGCGUA | -0.0844 |
| CAAGACG | -0.00652 |
| AUGUACC | -0.219 |
| ACACAUG | 0.00979 |
| AGUUUUC | -0.409 |
| GGGAACG | 0.305 |
| UGCGAUA | 0.0388 |
